Results from different studies.
Numbered parts are unrelated; each lists some results of a single study. Changes are numbered by the printed parent chain.

Study 1
Target: CCND1, cyclin fold, Cln2 fusion (human)
Method: yeast growth competition, sequencing
Matrix: yeast
Setting: weak parent motif
Baseline: not given
Direction: higher = stronger binding
Starting sequence: MASTL docking peptide (human); PMIAKNLMCELDE
For `A4Y`, “normalised enrichment score” read 0.15.
`C9D`: “normalised enrichment score” 0.211.
Under “normalised enrichment score”, `L11R` is recorded as -0.128.
For `E10F`, “normalised enrichment score” read 0.00939.
Under “normalised enrichment score”, `N6W` is recorded as 0.0646.
`E10V` — result for “normalised enrichment score”: -0.11.
For `N6D`, “normalised enrichment score” read 0.253.

Study 2
Target: Interferon regulatory factor 5, full length, phosphomimetic (IRF5, Homo sapiens, UniProt Q13568-2, residues 1-514, K96S/S451D/S453D/S456D/S462D)
Method: protein-binding microarray
Molecule type: double-stranded DNA, one strand shown
Matrix: in vitro
Tested at: 250 nM
Setting: 60-bp whole probe
Together with: salmon DNA 0.4 mg/ml
Baseline: random background probes
Direction: higher = stronger binding
All sequences stand within: GCCTAGCAC … GTCTTGATTCGCTTGACGCTGCTG
With `GACGATGTCAGACTGGAGACGTGCTAG` the log fluorescence was -0.338 z-score.
`ATATCTAAAAAGTCTCTGGGAGTGCTA` gave a log fluorescence of 0.639 z-score.
`GACGGTTTCGGCTATCGGGACGTGCTA` has a log fluorescence of 7.53 z-score.
`TTAGGTTTCGACTAACGGTTAGTGCTA` gave a log fluorescence of 8.14 z-score.
The log fluorescence of `GACGATTTCACTTTCGAGACGTGCTAG` is reported as 8.55 z-score.
The log fluorescence of `TTAGGACTGGGTCACGGTTAGTGCTAG` is reported as -0.213 z-score.
The log fluorescence of `GACGGTTCCGGTTTCGGGGCGTGCTAG` is reported as 3.78 z-score.

Study 3
Target: RNA binding protein fox-1 homolog 2, RRM domain, GST-SBP tag (RBFOX2, Homo sapiens, UniProt O43251-10, residues 100-194)
Method: RNA Bind-n-Seq
Molecule type: RNA
Matrix: in vitro
Tested at: 365 nM
Setting: natural RNA segment, single round, ends assumed
Baseline: no-protein control
Direction: higher = stronger binding
All sequences stand within: GGGAGUUCUACAGUCCGACGAUC … UGGAAUUCUCGGGUGCCAA
Construct (chain): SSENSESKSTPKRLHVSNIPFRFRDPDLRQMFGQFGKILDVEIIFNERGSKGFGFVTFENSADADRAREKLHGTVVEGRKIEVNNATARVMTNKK
`GGAAAGGGCUCUCCUCUCUGAUUGGUCCCUAGGCCACGGGCCGGCCCCCAGACACCAUUCACCGACCCACUGCAGGCUGUCCUCCAACCAUGGGGUGGCCACUCCACCCG`: “RBNS enrichment (R)” 0.606.
`GCAAUGGUUGUCAGCUUCCUCUGAAGACCGAGCUUGACGCCUCCAUGCCAGCUGCCGUUGGAGACGCAAAGCCAAGCAAGGGUCAGGAGGGAAGCUGGCCCGGCUGACUG` — result for “RBNS enrichment (R)”: 0.394.
`UUCUUCUCCCUCCAACCAGAGUUGUGUCUAACUUUAGGCAUCUUUUAAUAAAUGUCAUUGCGACUCUAUGACCGGUGUGGUUAAAGAGAAGGGCAGGGGCGUUCUGGAGG` — result for “RBNS enrichment (R)”: 0.352.
`GAAGAGGAAGAAGAGGAAGAAUAGGAAGGCAGACUAGAAACCGGAGCACCCAUCAAGUCUGUCAGACUCACGGGGUGAGGGGUGGCCUGUUUGGAUUCUGUUAGGGAGGG`: “RBNS enrichment (R)” 0.954.
`UAAUCAAAGUGCCCUCCCAAAUCAGUUCUCCUUUUCGUAUGAACAGCAUCUCUACUUUUAAAGAGGAGUUGAGGAUCGAGAAGAUGACAGUGCAGCAGUGGGUGUGGCCU`: “RBNS enrichment (R)” 0.529.
`GUUAUCCAACGCUUCAUUGUACCAGACAUUGUCCAGAAGUUUCAAAGACCCUUUGCAAACCCUGAACUGGGCUACGGGAAAAUAACACGAAUACUGAUAAGGACACAACU` — result for “RBNS enrichment (R)”: 0.256.
`UCAAGCUUUAAUUUGGAUCCACACCUACAGCUGACCCAAAUGUCUCCUCUGUAGUCAUCUUAUUUGGAUCAGGGAGAAGCAUGAACAAAAAUAUGUUCCAGAACCAUGUG`: “RBNS enrichment (R)” 0.748.
`CUAUUUUUACAUACCCAAUUCCAGUAACUCUCAAAUCCAGUAUUUUACUCAAACUCUGUUGGGGCAUUUUACUAACCUUGUUCCCUUUUUGGCCUGUAAGACACUUUAGA` — result for “RBNS enrichment (R)”: 0.682.
For `UGGUGCUGUUUGAAGUUACAUCCCUUCUCUUUGGAGGAUUUAAAAAUGAUCUAUCUUUUGGUCCACUUGCCUAAUUUUCCCAUUUUCCACCCCUGGCCCCCUACCCUUAG`, “RBNS enrichment (R)” read 0.773.
Under “RBNS enrichment (R)”, `GCAUCAAGGAAAAGGUAUGAUGCCGCCGCCGCCUAUGGGCAUGAUGCCGCCGCCUCCGCCACCUCCCAGUGGGCAGCCCCCGCCUCCUCCCUCUGGUCCUCUUCCUCCAU` is recorded as 0.489.

Further values, each from its own experiment
With `PhoQ, residues 284 288 289 292 302 303 ASVMEA` the fold induction was 0.806 (PhoP, residues 12 14 15 18 19 TPLRH (Escherichia coli, UniProt P23836); Sort-seq, refers to: YFP reporter; E. coli; PhoQ-PhoP variant library, together with: 10 µM Mg2+; baseline: high Mg2+ state, higher = stronger signaling).

Repeated from above (study 2):
With `GACGATGTCAGACTGGAGACGTGCTAG` the log fluorescence was -0.338 z-score.
`ATATCTAAAAAGTCTCTGGGAGTGCTA` gave a log fluorescence of 0.639 z-score.
`GACGGTTTCGGCTATCGGGACGTGCTA` has a log fluorescence of 7.53 z-score.
`TTAGGTTTCGACTAACGGTTAGTGCTA` gave a log fluorescence of 8.14 z-score.
